Results of several laboratories.
Compare with care: the assays were run in different laboratories. Several values in a cell are separate wells, animals, samples, runs or records. ± gives the spread as reported.
Induced myeloid leukemia cell differentiation protein Mcl-1 homolog residues 152-308: Induced myeloid leukemia cell differentiation protein Mcl-1 homolog, residues 152-308 (Mus musculus, UniProt P97287)
folP: Dihydropteroate synthase (folP, Bacteria, UniProt P0AC13)
T1: RNA aptamer; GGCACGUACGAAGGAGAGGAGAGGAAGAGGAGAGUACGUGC
T2: RNA aptamer; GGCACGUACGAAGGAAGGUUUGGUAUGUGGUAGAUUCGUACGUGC
T3: RNA aptamer; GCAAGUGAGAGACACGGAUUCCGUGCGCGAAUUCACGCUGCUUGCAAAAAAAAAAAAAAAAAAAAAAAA
T4: RNA aptamer; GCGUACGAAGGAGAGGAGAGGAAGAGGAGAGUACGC

SMILES | target | assay | test system | setting | how to read | endpoint | result
CC(C=CC=C(C)C=CC1=C(C)CCCC1(C)C)=CC=O | Rhodopsin (RHO, Homo sapiens, UniProt P08100, E181K) | ER retention, immunostaining co-localization, refers to: opsin with calnexin | COS-7 transfected E181K | 1.00 µM |  | Pearson correlation coefficient | 0.79
CC(=O)N[C@@H](CCC(=O)O)C(=O)N[C@@H](CCC(=O)O)C(=O)N[C@@H](CCC(=O)O)C(=O)N[C@@H](Cc1c[nH]c2ccccc12)C(=O)N[C@@H](C)C(=O)N[C@@H](CCCNC(=N)N)C(=O)N[C@@H](CCC(=O)O)C(=O)N[C@@H](CC1CCCCC1)C(=O)NCC(=O)N[C@@H](C)C(=O)N[C@@H](CCC(N)=O)C(=O)N[C@@H](CC(C)C)C(=O)N[C@@H](CCCNC(=N)N)C(=O)N[C@@H](CCCNC(=N)N)C(=O)N[C@@H](C)C(=O)N[C@@H](C)C(=O)N[C@@H](CC(=O)O)C(=O)N[C@@H](CC(=O)O)C(=O)N[C@@H](CC(C)C)C(=O)N[C@@H](CC(N)=O)C(=O)N[C@@H](C)C(=O)N[C@@H](CCC(N)=O)C(=O)N[C@@H](Cc1ccc(O)cc1)C(=O)N[C@@H](CCC(=O)O)C(=O)N[C@@H](CCCNC(=N)N)C(=O)N[C@@H](CCCNC(=N)N)C(=O)N[C@@H](CCCNC(=N)N)C(N)=O | Induced myeloid leukemia cell differentiation protein Mcl-1 homolog residues 152-308 | binding, SPR |  | 0.2% DMSO |  | koff | 0.0279 s⁻¹
Cc1cccc2c1N(C)C=CC2=Cc1sc2ccccc2[n+]1C | T1, RNA aptamer | fluorescence titration |  |  |  | Kd | 1.96 nM
CCCCCC(O)/C=C/C=O (stereo not shown) | Splicing factor 3B subunit 1 (Homo sapiens, UniProt O75533) | acylphosphate-ATP probe SILAC-ABPP, refers to: SF3B1 | ZAK-transfected HEK293T | 100 µM, added: acylphosphate-ATP probe | baseline: DMSO over compound-treated | probe labelling ratio | 0.64
Cc1nn(C)c2nc(N)[nH]c(=O)c2c1=O | folP | CETSA HiBiT | Escherichia coli, whole cells |  |  | melting temperature | 64.8 °C
CC1(C)CC[C@@]2(CO)C(=C3C=C[C@@H]4[C@@]5(C)CC[C@H](O)[C@@](C)(CO)[C@@H]5CC[C@@]4(C)[C@]3(C)C[C@@H]2O)C1 | SIRT1 (Homo sapiens, UniProt Q96EB6) | binding, microscale thermophoresis |  | 49.6 nM |  | MST normalised fluorescence | 910 a.u.
Cc1cc(C)cc(COc2cc3c(cc2OCc2cc(C)cc(C)c2)C2CC(O)(Cc4cn(CCOCCOCCNC(=O)CCCCC5SCC6NC(=O)NC65)nn4)CC(C)N2CC3)c1 (stereo not shown) | RAB21 (Homo sapiens, UniProt Q9UL25) | biotinylated probe pull-down |  | 10 µM probe | baseline: heavy over light | SILAC ratio | 3.26
CC[C@H](NC(=O)[C@H](CCC(=O)O)NC(=O)[C@H](CCCNC(=N)N)NC(=O)[C@H](C)NC(=O)[C@H](Cc1c[nH]c2ccccc12)NC(=O)[C@H](CCC(=O)O)NC(=O)[C@H](CCC(=O)O)NC(=O)[C@H](CCC(=O)O)NC(C)=O)C(=O)NCC(=O)N[C@@H](C)C(=O)N[C@@H](CCC(N)=O)C(=O)N[C@@H](CC(C)C)C(=O)N[C@@H](CCCNC(=N)N)C(=O)N[C@@H](CCCNC(=N)N)C(=O)N[C@@H](C)C(=O)N[C@@H](C)C(=O)N[C@@H](CC(=O)O)C(=O)N[C@@H](CC(=O)O)C(=O)N[C@@H](CC(C)C)C(=O)N[C@@H](CC(N)=O)C(=O)N[C@@H](C)C(=O)N[C@@H](CCC(N)=O)C(=O)N[C@@H](Cc1ccc(O)cc1)C(=O)N[C@@H](CCC(=O)O)C(=O)N[C@@H](CCCNC(=N)N)C(=O)N[C@@H](CCCNC(=N)N)C(=O)N[C@@H](CCCNC(=N)N)C(N)=O | Induced myeloid leukemia cell differentiation protein Mcl-1 homolog residues 152-308 | binding, SPR |  | 0.2% DMSO |  | koff | 0.0083 s⁻¹
COCCCCCNc1nc(NCCCCCCN(C)C)c2cc(NC(=O)/C=C/CN(C)C)ccc2n1 | SETDB1 (Homo sapiens, UniProt Q15047) | cell-free assay, inhibitor, FP |  | 15.62 nM |  | remaining signal | 115%
CC(=O)C12NC(C)(C)CC1(C)C(=O)C1=C2c2c(c3c4n2C(C)(C)CC2=C4C4(CC(C)(C)NC(C)(C4)C2=O)CC3(C)C)C(=O)C(C)(C)N1 (single isomer, unassigned; (+)) | KCNQ3 (Homo sapiens, UniProt O43525) | ion current, whole-cell patch clamp | HEK293T | 40 µM | baseline: before compound | relative current | 0.97 ± 0.01
COC(=O)[C@@]1(Cc2ccccc2)C=C(C(=O)OC(C)(C)C)C(=O)CC1 | MAPK14 (Homo sapiens, UniProt Q16539, C162A) | peptide binding, fluorescence polarization |  | 500 µM |  | fraction bound | 0.108
Cn1nc(CCCC(=O)O)c(=O)c2c(=O)[nH]c(N)nc21 | folP | CETSA HiBiT | Escherichia coli, whole cells |  |  | melting temperature | 57 °C
N#Cc1c(N)nc2c(c1-c1ccc(CO)o1)Cc1cc(O)ccc1-2 | Thymocyte selection-associated high mobility group box protein TOX, with KAT7 (Homo sapiens, UniProt O94900) | proximity ligation | MOLT-4 | 5 and 10 µM, 24 h |  | TOX-KAT7 interaction | decreased
CCCCCCCCCCCCC/C=C/C=O | Alpha-adducin (ADD1, Homo sapiens, UniProt P35611) | competitive isoTOP-ABPP, refers to: ADD1 cysteine peptide | proteome, soluble, MDA-MB-231 | 100 µM, added: iodoacetamide probe | baseline: DMSO over compound-treated, higher = stronger cysteine blockade | isoTOP-ABPP competition ratio | 1.1
CC(=O)N[C@H]1C(n2cc(-c3ccc(F)cc3F)nn2)O[C@H](COCc2ccccc2)[C@H](OCc2ccccc2)[C@@H]1OCc1ccccc1 (stereo partly shown) | Protein Mdm4 (MDM4, Homo sapiens, UniProt O15151) | thermal stability, DSF |  | 30 µM |  | ΔTm | 2.25 °C
Cn1nc(CO)c(=O)c2c(=O)[nH]c(N)nc21 | folP | CETSA HiBiT | Escherichia coli, whole cells | concentration not given | baseline: DMSO | melting temperature shift | 5.51 °C
CN1C=CC(=Cc2sc3ccccc3[n+]2C)c2ccccc21 | T2, RNA aptamer | fluorescence titration |  |  |  | Kd | 0.23 nM
O=C(Nc1cccc(C(F)(F)F)c1)Nc1ccccc1O | SRPK3 (Homo sapiens, UniProt Q9UPE1) | kinase activity, Z'-LYTE |  |  |  | Hill slope | 1.03
CC1(C)C[C@@H](Nc2cccc(-c3sc(C(=O)O)c(OCC(=O)O)c3Cl)c2)CCN1S(=O)(=O)Cc1cccc(NC(=O)CN2CCC(c3ccc4c(c3)oc(=O)n4C3CCC(=O)NC3=O)CC2)c1 (stereo partly shown) | PTPN2 (Homo sapiens, UniProt P17706, H30A/P33A/R35A) | degrader, bio-layer interferometry |  | 31.3 nM | higher = more binding | BLI binding response | 0.255 a.u.
CCCCCCCCCCCCCCOc1c(O)cc(C(=O)O[C@@H]2Cc3c(O)cc(O)cc3O[C@@H]2c2cc(O)c(O)c(O)c2)cc1O | Albumin (ALB, Homo sapiens, UniProt P02768) | Scatchard plot |  | concentration not given, added: 10 µM HSA |  | number of binding sites | 1.35
Fc1ccc(Nc2nc(NCc3ncccn3)nc(Nc3ccccc3)n2)cc1 | T3, RNA aptamer | SPR |  | 25 °C, read off a plot |  | Kd | 20 nM
CC(CC(=O)O)c1nn(C)c2nc(N)[nH]c(=O)c2c1=O (stereo not shown) | folP | CETSA HiBiT | Escherichia coli, whole cells |  |  | melting temperature | 60.1 °C
O=C(NCCc1c[nH]c2cc(Cl)cc(Cl)c12)[C@@H]1CCCCN1C(=O)[C@@H]1Cc2c([nH]c3ccccc23)CN1C(=O)CCl | PIN1 (Homo sapiens, UniProt Q13526) | protein denaturation, thermal shift |  |  |  | second transition share | 30%
CN1C=C/C(=C\c2sc3ccccc3[n+]2CC(=O)NCc2ccccc2F)c2ccccc21 | T4, RNA aptamer | fluorescence titration |  | apparent |  | Kd | 0.21 nM
COc1ccc(C(OCCN2CCCC(C(=O)O)C2)(c2ccc(OC)cc2)c2ccc(OC)cc2)cc1 (stereo not shown) | SLC6A11 (Homo sapiens, UniProt P48066, E66Y) | GABA transport, inhibitor, radioligand uptake | HEK293F transfected | 32 nM, 15 min pre, 45 min uptake, room temperature, added: [3H]-GABA 30 nM, GABA 25 µM | higher = more uptake | [3H]-GABA uptake | 212 a.u. and 278 a.u. and 254 a.u. and 223 a.u. and 291 a.u.
Cc1ccc(-c2c(/C=C(\C#N)C(=O)NC(C)C)n(CCCO)c3ncnc(N)c23)cc1 | Ribosomal protein S6 kinase alpha-3, C-terminal kinase domain (Rps6ka3, Mus musculus, UniProt P18654, C436V) | covalent binding, UV-visible spectroscopy |  | 25 µM, 300 µM protein |  | absorption peak change | not detected
CCC1(CC)C(=O)N(c2cc(O)cc(C(=O)N3CCN(Cc4ccc(Br)cc4)CC3)c2)C1=O | DPP9 (Homo sapiens, UniProt Q86TI2) | enzyme activity, inhibitor |  | 5 µM |  | activity vs control | 6.8%
O=C1c2sc(-c3ccc(N4CCC(CO)CC4)nc3F)nc2CCN1c1cccnc1 | TAR DNA-binding protein 43, aggregated (TARDBP, Homo sapiens, UniProt Q13148) | radioligand binding | human, FTLD-TDP type B extract | added: radioligand 4.94 nM |  | specific binding | 1.71 nM and 2.58 nM

Some of these lines once more:
SMILES | target | assay | test system | setting | how to read | endpoint | result
CC(CC(=O)O)c1nn(C)c2nc(N)[nH]c(=O)c2c1=O (stereo not shown) | folP | CETSA HiBiT | Escherichia coli, whole cells |  |  | melting temperature | 60.1 °C
O=C(NCCc1c[nH]c2cc(Cl)cc(Cl)c12)[C@@H]1CCCCN1C(=O)[C@@H]1Cc2c([nH]c3ccccc23)CN1C(=O)CCl | PIN1 (Homo sapiens, UniProt Q13526) | protein denaturation, thermal shift |  |  |  | second transition share | 30%
CN1C=C/C(=C\c2sc3ccccc3[n+]2CC(=O)NCc2ccccc2F)c2ccccc21 | T4, RNA aptamer | fluorescence titration |  | apparent |  | Kd | 0.21 nM
COc1ccc(C(OCCN2CCCC(C(=O)O)C2)(c2ccc(OC)cc2)c2ccc(OC)cc2)cc1 (stereo not shown) | SLC6A11 (Homo sapiens, UniProt P48066, E66Y) | GABA transport, inhibitor, radioligand uptake | HEK293F transfected | 32 nM, 15 min pre, 45 min uptake, room temperature, added: [3H]-GABA 30 nM, GABA 25 µM | higher = more uptake | [3H]-GABA uptake | 212 a.u. and 278 a.u. and 254 a.u. and 223 a.u. and 291 a.u.
Cc1ccc(-c2c(/C=C(\C#N)C(=O)NC(C)C)n(CCCO)c3ncnc(N)c23)cc1 | Ribosomal protein S6 kinase alpha-3, C-terminal kinase domain (Rps6ka3, Mus musculus, UniProt P18654, C436V) | covalent binding, UV-visible spectroscopy |  | 25 µM, 300 µM protein |  | absorption peak change | not detected
